Literature values as cited in several papers.
Numbered parts are unrelated; values within a part may stem from several laboratories.

Block 1
Organism: Toxoplasma gondii
Effect on: parasite growth
Tested at: concentration not given
Notes: published screen
Quantity: activity class
COc1ccc(/C=C/C(=O)Nc2ccccc2C(=O)O)cc1OC: inactive
CCOC(=O)c1ccc(OC(=O)CCCCCN=C(N)N)cc1.CS(=O)(=O)O: inactive
CCN1CCC[C@H]1CNC(=O)c1c(O)c(Cl)cc(Cl)c1OC: inactive
Cl.O=C(O)/C=C/c1ccc(Cn2ccnc2)cc1: inactive

Other studies, line by line
CCC(=O)N[C@H]1CC[C@@H](C(=O)N(C)c2ccc(-c3nc4ccccc4o3)cc2)C1
IC50 (FASN; biochemical activity): 79 nM

O=c1[nH]cc(F)c(=O)[nH]1
IC50 (HepG2): 258000 nM

Cc1nccc(COC(=O)N2C[C@@H]3[C@@H](CNC(=O)c4ccc5[nH]nnc5c4)[C@@H]3C2)n1
IC50 (ENPP2; biochemical activity): 8900 nM

C=C(F)C(=O)N1CCN(c2nc(OC[C@@H]3CCCN3C)nc3c2CCN(c2cccc4cccc(Cl)c24)C3)C[C@@H]1CC#N
oral clearance CL/F (patients, advanced solid tumours; oral, dose not given): 37 L/h

CNC(=O)c1ccc(Nc2ncc(C(F)(F)F)c(NCc3nccnc3N(C)S(C)(=O)=O)n2)cc1
IC50 (FLT1; Cerep selectivity panel): 2500 nM

COc1cccc2c1C(=O)c1c(O)c3c(c(O)c1C2=O)C[C@@](O)(C(=O)CO)C[C@@H]3O[C@H]1C[C@H](N)[C@H](O)[C@H](C)O1
IC50 (HepG2): 9200 nM

COc1cc(-c2cn(C3CCc4c(F)cccc4N(CC(F)(F)F)C3=O)nn2)ccc1-n1cnc(C)c1 (stereo not drawn)
IC50 (SLC6A3): 536 nM

CO[C@H]1/C=C/O[C@@]2(C)Oc3c(C)c(O)c4c(O)c(c(/C=N/N5CCN(C)CC5)c(O)c4c3C2=O)NC(=O)/C(C)=C\C=C\[C@H](C)[C@H](O)[C@@H](C)[C@@H](O)[C@@H](C)[C@H](OC(C)=O)[C@@H]1C
EC50 (CYP2C8 human; enzyme induction, inducer, Simcyp model): 300 nM

For quick reference, copied from above (other studies, line by line):
COc1cccc2c1C(=O)c1c(O)c3c(c(O)c1C2=O)C[C@@](O)(C(=O)CO)C[C@@H]3O[C@H]1C[C@H](N)[C@H](O)[C@H](C)O1
IC50 (HepG2): 9200 nM

Cc1nccc(COC(=O)N2C[C@@H]3[C@@H](CNC(=O)c4ccc5[nH]nnc5c4)[C@@H]3C2)n1
IC50 (ENPP2; biochemical activity): 8900 nM
